Measurements collected from several papers.
Compare with care: the assays were run in different laboratories. ± gives the spread as reported.
PPARG: Peroxisome proliferator-activated receptor gamma (PPARG, Homo sapiens, UniProt P37231)
Sequence of UniProt P37231 (whole entry, looked up): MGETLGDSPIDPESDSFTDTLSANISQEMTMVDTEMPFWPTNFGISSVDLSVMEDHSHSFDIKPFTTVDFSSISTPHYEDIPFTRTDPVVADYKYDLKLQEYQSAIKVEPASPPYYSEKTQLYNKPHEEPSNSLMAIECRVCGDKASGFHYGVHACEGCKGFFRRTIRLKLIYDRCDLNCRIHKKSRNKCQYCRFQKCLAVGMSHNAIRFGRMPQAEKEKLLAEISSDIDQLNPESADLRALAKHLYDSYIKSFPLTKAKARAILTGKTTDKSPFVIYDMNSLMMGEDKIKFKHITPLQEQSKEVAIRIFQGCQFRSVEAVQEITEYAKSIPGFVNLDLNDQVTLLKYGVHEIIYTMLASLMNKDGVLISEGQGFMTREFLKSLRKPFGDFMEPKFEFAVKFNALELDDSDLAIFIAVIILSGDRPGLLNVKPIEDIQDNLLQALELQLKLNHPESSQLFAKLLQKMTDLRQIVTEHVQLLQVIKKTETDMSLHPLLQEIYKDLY
HDAC1: Histone deacetylase 1 (HDAC1, Homo sapiens, UniProt Q13547)
Sequence of UniProt Q13547 (whole entry, looked up): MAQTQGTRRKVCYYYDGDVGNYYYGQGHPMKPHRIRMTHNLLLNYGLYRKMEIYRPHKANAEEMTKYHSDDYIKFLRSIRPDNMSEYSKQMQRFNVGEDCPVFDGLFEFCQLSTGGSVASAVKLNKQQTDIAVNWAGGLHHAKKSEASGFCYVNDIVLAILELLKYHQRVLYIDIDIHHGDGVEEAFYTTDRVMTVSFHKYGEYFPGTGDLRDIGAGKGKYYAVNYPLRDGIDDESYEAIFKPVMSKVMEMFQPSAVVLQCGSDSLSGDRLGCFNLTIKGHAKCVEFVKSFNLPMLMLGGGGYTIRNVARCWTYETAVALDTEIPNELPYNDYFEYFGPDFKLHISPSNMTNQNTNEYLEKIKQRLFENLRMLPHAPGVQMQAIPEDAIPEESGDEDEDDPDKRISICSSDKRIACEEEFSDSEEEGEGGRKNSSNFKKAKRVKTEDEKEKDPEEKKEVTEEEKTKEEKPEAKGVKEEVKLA
Melanoma-associated antigen 4 MAGE homology domain: Melanoma-associated antigen 4, MAGE homology domain (Homo sapiens, UniProt P43358)
Sequence of UniProt P43358 (whole entry, looked up): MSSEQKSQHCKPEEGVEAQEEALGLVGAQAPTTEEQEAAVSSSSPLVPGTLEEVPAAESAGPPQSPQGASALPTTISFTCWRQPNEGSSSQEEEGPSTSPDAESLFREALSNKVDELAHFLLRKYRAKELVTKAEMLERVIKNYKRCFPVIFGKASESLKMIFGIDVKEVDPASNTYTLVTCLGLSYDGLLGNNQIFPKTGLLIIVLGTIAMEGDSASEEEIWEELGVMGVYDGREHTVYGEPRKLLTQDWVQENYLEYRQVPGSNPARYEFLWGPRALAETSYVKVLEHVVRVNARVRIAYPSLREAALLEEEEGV
Rhomboid protease AarA: Rhomboid protease AarA (Providencia stuartii, UniProt P46116)
Sequence of UniProt P46116 (whole entry, looked up): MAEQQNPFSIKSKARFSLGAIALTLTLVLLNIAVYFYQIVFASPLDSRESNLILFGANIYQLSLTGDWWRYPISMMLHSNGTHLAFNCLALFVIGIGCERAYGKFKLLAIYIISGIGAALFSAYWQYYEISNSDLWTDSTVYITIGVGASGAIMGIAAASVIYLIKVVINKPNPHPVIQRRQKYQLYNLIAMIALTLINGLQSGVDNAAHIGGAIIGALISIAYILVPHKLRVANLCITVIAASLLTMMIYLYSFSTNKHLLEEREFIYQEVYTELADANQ
HDAC5: Histone deacetylase 5 (HDAC5, Homo sapiens, UniProt Q9UQL6)
Sequence of UniProt Q9UQL6 (whole entry, looked up): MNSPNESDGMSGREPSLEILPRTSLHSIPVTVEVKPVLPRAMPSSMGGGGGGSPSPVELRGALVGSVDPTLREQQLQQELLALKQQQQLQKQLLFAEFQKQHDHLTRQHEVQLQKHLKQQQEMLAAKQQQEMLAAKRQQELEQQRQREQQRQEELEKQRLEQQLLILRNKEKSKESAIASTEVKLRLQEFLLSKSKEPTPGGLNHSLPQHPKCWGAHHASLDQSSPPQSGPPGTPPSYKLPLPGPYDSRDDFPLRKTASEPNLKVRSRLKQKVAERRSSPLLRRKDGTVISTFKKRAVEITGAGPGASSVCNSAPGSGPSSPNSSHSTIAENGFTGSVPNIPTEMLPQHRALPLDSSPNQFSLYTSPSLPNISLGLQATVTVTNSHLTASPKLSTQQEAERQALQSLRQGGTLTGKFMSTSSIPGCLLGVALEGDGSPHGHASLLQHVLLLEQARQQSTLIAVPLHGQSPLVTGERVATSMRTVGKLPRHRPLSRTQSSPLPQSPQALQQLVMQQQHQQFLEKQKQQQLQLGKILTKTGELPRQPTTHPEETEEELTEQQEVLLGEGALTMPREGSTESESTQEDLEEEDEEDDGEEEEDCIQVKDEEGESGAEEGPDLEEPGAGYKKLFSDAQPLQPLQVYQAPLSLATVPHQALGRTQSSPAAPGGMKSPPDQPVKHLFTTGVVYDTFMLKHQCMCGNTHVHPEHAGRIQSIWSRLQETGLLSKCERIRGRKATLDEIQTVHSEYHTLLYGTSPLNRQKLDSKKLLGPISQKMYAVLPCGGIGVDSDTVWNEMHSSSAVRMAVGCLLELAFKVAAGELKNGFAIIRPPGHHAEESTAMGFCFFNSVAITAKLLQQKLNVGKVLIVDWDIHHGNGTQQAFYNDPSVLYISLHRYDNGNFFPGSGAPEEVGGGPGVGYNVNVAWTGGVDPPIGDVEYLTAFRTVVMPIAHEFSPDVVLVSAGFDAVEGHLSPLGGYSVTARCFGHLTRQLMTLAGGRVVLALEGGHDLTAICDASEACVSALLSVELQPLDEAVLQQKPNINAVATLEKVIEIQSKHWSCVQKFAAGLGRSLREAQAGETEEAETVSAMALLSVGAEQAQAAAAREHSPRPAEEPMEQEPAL
PPARG ligand-binding domain: Peroxisome proliferator-activated receptor gamma, ligand-binding domain (PPARG, Homo sapiens, UniProt P37231)
SCN5A: Sodium channel protein type 5 subunit alpha (SCN5A, Homo sapiens, UniProt Q14524)
Sequence of UniProt Q14524 (whole entry, looked up): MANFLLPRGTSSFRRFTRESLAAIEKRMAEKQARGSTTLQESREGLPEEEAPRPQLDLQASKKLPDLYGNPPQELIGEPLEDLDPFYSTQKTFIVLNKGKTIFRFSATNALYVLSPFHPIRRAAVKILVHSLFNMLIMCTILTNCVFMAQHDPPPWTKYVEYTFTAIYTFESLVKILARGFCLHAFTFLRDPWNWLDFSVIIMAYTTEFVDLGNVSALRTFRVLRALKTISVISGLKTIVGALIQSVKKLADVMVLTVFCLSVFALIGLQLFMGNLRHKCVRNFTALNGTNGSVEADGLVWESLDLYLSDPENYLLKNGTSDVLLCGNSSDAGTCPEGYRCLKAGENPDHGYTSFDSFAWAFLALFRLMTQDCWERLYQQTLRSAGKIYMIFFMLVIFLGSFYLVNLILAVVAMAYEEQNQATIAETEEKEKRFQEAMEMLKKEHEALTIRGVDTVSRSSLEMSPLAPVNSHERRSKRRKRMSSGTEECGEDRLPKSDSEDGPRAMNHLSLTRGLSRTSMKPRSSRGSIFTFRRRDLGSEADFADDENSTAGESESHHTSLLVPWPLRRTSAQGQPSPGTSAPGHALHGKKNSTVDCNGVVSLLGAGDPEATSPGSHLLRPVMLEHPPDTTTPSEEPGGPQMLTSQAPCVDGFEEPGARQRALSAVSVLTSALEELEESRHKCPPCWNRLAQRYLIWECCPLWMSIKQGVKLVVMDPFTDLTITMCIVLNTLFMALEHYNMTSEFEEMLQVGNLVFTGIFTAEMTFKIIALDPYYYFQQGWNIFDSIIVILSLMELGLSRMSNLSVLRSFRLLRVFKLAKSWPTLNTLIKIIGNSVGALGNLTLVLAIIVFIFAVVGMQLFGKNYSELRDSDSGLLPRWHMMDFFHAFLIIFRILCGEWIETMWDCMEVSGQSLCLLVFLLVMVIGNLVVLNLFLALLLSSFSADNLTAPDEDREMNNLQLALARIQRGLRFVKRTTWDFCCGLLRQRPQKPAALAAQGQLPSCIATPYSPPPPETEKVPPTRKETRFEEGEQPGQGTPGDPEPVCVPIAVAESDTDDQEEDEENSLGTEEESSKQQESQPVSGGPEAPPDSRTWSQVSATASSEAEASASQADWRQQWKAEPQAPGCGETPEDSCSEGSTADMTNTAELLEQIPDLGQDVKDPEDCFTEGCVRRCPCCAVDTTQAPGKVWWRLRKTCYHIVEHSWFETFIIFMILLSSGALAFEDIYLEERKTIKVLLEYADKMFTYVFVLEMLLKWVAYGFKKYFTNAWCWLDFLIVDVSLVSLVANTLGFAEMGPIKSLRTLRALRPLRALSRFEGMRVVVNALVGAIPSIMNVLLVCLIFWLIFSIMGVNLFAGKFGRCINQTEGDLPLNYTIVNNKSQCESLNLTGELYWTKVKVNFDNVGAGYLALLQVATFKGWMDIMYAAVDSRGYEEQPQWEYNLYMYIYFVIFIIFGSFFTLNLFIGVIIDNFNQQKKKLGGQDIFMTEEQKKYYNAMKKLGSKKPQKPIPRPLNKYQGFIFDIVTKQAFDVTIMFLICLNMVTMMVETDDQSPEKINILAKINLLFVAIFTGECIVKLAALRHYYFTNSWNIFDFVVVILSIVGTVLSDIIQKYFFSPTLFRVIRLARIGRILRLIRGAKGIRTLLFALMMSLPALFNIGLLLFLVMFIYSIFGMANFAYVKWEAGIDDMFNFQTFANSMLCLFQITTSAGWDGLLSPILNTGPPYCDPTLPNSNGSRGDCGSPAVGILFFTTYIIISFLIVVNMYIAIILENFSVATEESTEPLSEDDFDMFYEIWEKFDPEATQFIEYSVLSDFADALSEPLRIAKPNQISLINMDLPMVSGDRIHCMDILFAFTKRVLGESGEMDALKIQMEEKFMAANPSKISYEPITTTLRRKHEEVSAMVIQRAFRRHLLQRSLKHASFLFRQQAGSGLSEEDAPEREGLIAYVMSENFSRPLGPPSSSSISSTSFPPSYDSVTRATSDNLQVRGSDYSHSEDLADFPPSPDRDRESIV
Sequence of UniProt P32245 (whole entry, looked up): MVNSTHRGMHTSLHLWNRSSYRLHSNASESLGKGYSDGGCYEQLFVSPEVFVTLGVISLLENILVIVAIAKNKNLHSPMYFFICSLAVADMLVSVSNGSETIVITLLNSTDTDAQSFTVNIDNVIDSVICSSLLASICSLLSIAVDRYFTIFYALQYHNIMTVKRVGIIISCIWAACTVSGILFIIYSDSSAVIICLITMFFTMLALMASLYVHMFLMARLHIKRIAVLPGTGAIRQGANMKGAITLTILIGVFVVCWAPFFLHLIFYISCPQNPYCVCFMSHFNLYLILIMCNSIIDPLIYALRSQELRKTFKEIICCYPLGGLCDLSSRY

| Compound | target | test | system | conditions | IC50 |
| --- | --- | --- | --- | --- | --- |
| CN1CCCC1C(=O)NC(Cc1ccc(-n2cccn2)cc1)B(O)O (stereo not drawn) | Proteasome subunit beta type-9 / Proteasome subunit beta type-10 (Homo sapiens, UniProt P28065+P40306) | β1i activity, inhibitor |  | immunoproteasome, added: Ac-PAL-AMC | 6300 ± 2100 nM |
| Nc1ncnc2c1c(-c1ccc(Oc3ccccc3)cc1)nn2C1CCCC1 | Tyrosine-protein kinase HCK (HCK, Homo sapiens, UniProt P08631, K245P/K248P) | ligand displacement in cells |  |  | 44 nM |
| Cc1cncn1Cc1ccc(Oc2cccc(Cl)c2)cc1 | Glutaminyl-peptide cyclotransferase-like protein (Homo sapiens, UniProt Q9NXS2) |  |  |  | 110 nM |
| CCn1c(C)c(Cc2cccc(OC(C)(C)C(=O)O)c2)c2ccc(C(=O)N[C@@H](C)c3cccc(C(C)(C)C)c3)cc21 | PPARG | ligand displacement, TR-FRET |  |  | 4 nM |
| Cc1nn(-c2cccc(N)c2)c(=O)c2cnc(Nc3ccc(N4CCNCC4)cc3)nc12 | Serine/threonine-protein kinase 25 (STK25, Homo sapiens, UniProt O00506) | enzyme activity, inhibitor |  |  | 2940 nM |
| CCCCCCCCC(=O)Nc1ccc(Nc2ncc(F)c(-c3cc(F)c4nc(C)n(C(C)C)c4c3)n2)cc1 | HDAC1 | enzyme activity, inhibitor |  |  | > 1000 nM |
| CC[C@H](C)[C@@H]1NC(=O)[C@H](Cc2ccc(O)cc2)NC(=O)CSC[C@@H](C(N)=O)NC(=O)[C@H](CC(N)=O)NC(=O)[C@H](Cc2cnc[nH]2)NC(=O)[C@H](Cc2ccc(O)cc2)NC(=O)[C@H](CC(=O)O)NC(=O)[C@H](Cc2ccc(O)cc2)NC(=O)[C@H](CC(C)C)NC(=O)[C@H](CCCNC(=N)N)NC1=O | Melanoma-associated antigen 4 MAGE homology domain | binding, TR-FRET displacement |  | added: Alexa647-labelled compound tracer | 24.1 ± 8.6 nM |
| O=C(NCC1CC1)c1ccc(NC(=O)C(C(F)(F)F)C(F)(F)F)cc1 | Rhomboid protease AarA | enzyme activity, inhibitor, fluorescence |  |  | 19000 nM |
| O=C(CCc1ccc(CNC(C(=O)O)C2CCCCC2)cn1)NO (stereo not drawn) | HDAC5 | enzyme activity, inhibitor |  |  | > 10000 nM |
| CCC(Oc1cccc(Cc2c(C)n(C)c3cc(C(=O)NC(C)c4cccc(C(C)(C)C)c4)ccc23)c1)C(=O)O (mixture of isomers) | PPARG | ligand displacement, TR-FRET |  |  | 308 nM |
| O=C1CC(c2ccccc2)N1S(=O)(=O)c1cccc(-c2ccccc2)c1 (stereo not drawn) | Rhomboid protease AarA | enzyme activity, inhibitor, fluorogenic peptide |  | 188 min pre-incubation | 5600 nM |
| Cc1c(Cc2cc(Cl)cc(O[C@@H](C)C(=O)O)c2)c2ccc(C(=O)N[C@@H](C)c3ccc(C(C)(C)C)cc3)cc2n1C | PPARG | ligand displacement, TR-FRET |  |  | 2 nM |
| COC(=O)CCCCNC(=O)Cc1ccc(Nc2ncc(F)c(-c3cc(F)c4nc(C)n(C(C)C)c4c3)n2)cc1 | HDAC1 | enzyme activity, inhibitor |  |  | > 1000 nM |
| COc1cccc([C@H](C)NC(=O)c2ccc3c(Cc4cccc(OC(C)(C)C(=O)O)c4)c(C)n(C)c3c2)c1 | PPARG | ligand displacement, TR-FRET |  |  | 6 nM |
| CC(C)(C)OC(=O)c1cccc(NC(=O)C(C(F)(F)F)C(F)(F)F)c1 | Rhomboid protease AarA | enzyme activity, inhibitor, fluorescence |  |  | 6300 nM |
| Cc1c(Cc2ccc(O[C@H](C)C(=O)O)c(Cl)c2)c2ccc(C(=O)N[C@@H](C)c3ccc(C(C)(C)C)cc3)cc2n1C | PPARG ligand-binding domain | reporter gene, luciferase reporter | HEK293T, Gal4-PPARγ LBD |  | 18800 nM |
| Cc1nnc(-c2ccc(CC(=O)NC(CCN3C4CCC3CC(n3c(C)nnc3C(C)C)C4)c3ccccc3)cc2)nn1 (stereo not drawn) | C-C chemokine receptor type 5 (CCR5, Homo sapiens, UniProt P51681, Y184K) | calcium mobilization, antagonist | HEK293T cells expressing CCR5 | added: PSC-RANTES | 1.71 nM |
| CC(=O)N[C@@H](CCCNC(=N)N)C(=O)N[C@H]1CSSC[C@@H](C(N)=O)NC(=O)[C@H](Cc2c[nH]c3ccccc23)NC(=O)[C@H](CCCNC(=N)N)NC(=O)[C@@H](Cc2ccc3ccccc3c2)NC(=O)[C@H](Cc2c[nH]cn2)NC(=O)[C@@H](C)NC1=O | Melanocortin receptor 4 (MC4R, Homo sapiens, UniProt P32245) | cAMP, antagonist, split-luciferase cAMP sensor |  | 12 min, added: α-MSH 70 nM (EC90) | 14.2 nM |

| Compound | target | test | system | conditions | IC50 |
| --- | --- | --- | --- | --- | --- |
| O=C(CNc1cccc2c1C(=O)N(C1CCC(=O)NC1=O)C2=O)NCCOCCOCCOCC(=O)N1CCC(CNC(=O)c2cccc(-c3noc(C(F)(F)F)n3)c2)(c2nc(-c3ccccc3)cs2)CC1 (stereo not drawn) | HDAC5 | enzyme activity, inhibitor |  |  | 3380 nM |
| O=C(Nc1ccccc1OCCc1ccccc1)C(C(F)(F)F)C(F)(F)F | Rhomboid protease AarA | enzyme activity, inhibitor, fluorescence |  |  | 1900 nM |
| O=C(NCC(F)c1ccc(Cl)cc1Cl)c1cc(Cl)nnc1Oc1cccc(C2CC2)c1 (stereo not drawn) | serine palmitoyltransferase (Zymoseptoria tritici, UniProt F9X349+F9XMN6) |  |  |  | 343 ± 12 nM |
| COc1c(Cl)cccc1NC(=O)C(C(F)(F)F)C(F)(F)F | Rhomboid protease AarA | enzyme activity, inhibitor, fluorescence |  |  | 5000 nM |
| CC[C@H](C)[C@@H]1NC(=O)[C@H](Cc2ccc(O)cc2)NC(=O)CSC[C@@H](C(N)=O)NC(=O)[C@H](CC(N)=O)NC(=O)[C@H](Cc2c[nH]cn2)NC(=O)[C@H](Cc2ccc(O)cc2)NC(=O)[C@H](CC(=O)O)NC(=O)[C@H](Cc2ccc(Cl)cc2)NC(=O)[C@H](CC(C)C)NC(=O)[C@H](CCCNC(=N)N)NC1=O | Melanoma-associated antigen 4 MAGE homology domain | binding, inhibitor, TR-FRET displacement |  | added: Alexa647-MTP-1 | 12.2 ± 3.4 nM |
| O=C(OCN1C(=O)c2ccccc2C1=O)/C(=C\c1ccco1)NC(=O)c1ccccc1 | Cruzipain (Trypanosoma cruzi, UniProt P25779) | enzyme activity, inhibitor |  |  | 1000 nM |
| Cc1ccc(C(=O)Nc2ccnc(S(N)(=O)=O)c2)c(N2CCCC(F)(F)CC2)n1 | SCN5A | ion current, automated whole-cell patch clamp |  | pH 7.3 | > 33800 nM |
| Cc1ncc2c(n1)CN(C(=O)Nc1nc(-c3cccs3)ccc1N)C2 | Lysine-specific histone demethylase 1A, with CoREST (KDM1A, Homo sapiens, UniProt O60341) | demethylase activity, inhibitor |  | LSD1-CoREST complex | > 150000 nM |
| CC1(F)CN(C(=O)Cn2c(=O)c(C(=O)NCc3ccc(Cl)cc3)cc3nc(N4CCN(CCN)C4=O)cnc32)C1 | Voltage-gated inwardly rectifying potassium channel KCNH2 (KCNH2, Homo sapiens, UniProt Q12809) | ion current, inhibitor, patch clamp |  |  | > 40000 nM |
| Cc1nc2c(F)cc(-c3nc(Nc4ccc(NC(=O)CCCCCCC(=O)NO)cc4)ncc3F)cc2n1C(C)C | HDAC1 | enzyme activity, inhibitor |  |  | 7.4 nM |
| O=C(Nc1ccccc1O)C(C(F)(F)F)C(F)(F)F | Rhomboid protease AarA | enzyme activity, inhibitor, fluorescence |  |  | 9400 nM |
| Cc1ccc(CNC(=O)[C@@H]2Cc3cccc(c3)Oc3cccc(c3)C[C@H](N)C(=O)N[C@@H](CCc3ccccc3)C(=O)N2)cc1 | Psmb1/Psmb8 (Rattus norvegicus, UniProt P18421+P28064) | enzyme activity, inhibitor |  | added: Ac-ANW-aminocoumarin, PA28α 12 nM | 56000 nM |
| CCCSc1nc(Sc2ncccn2)c2nnn(CCO)c2n1 | Lysine-specific histone demethylase 1A (KDM1A, Homo sapiens, UniProt O60341) | enzyme activity, inhibitor, fluorescence |  |  | 8890 nM |
| O=C(Nc1ccc2[nH]ncc2c1)c1c[nH]cc1-c1ccccc1 | SCN5A | sodium current, inhibitor | HEK293 stably expressing Nav1.5 |  | 22500 nM |
| Cc1c(Cc2cccc(OC(C)(C)C(=O)O)c2)c2ccc(C(=O)N[C@@H](C)c3cccc(C(F)(F)F)c3)cc2n1C | PPARG ligand-binding domain | reporter gene, luciferase reporter | HEK293T, Gal4-PPARγ LBD |  | 500 nM |
| Cc1ccc(S(=O)(=O)N2CC(NC(=O)c3ccccc3F)C2=O)cc1 (stereo not drawn) | Rhomboid protease AarA | enzyme activity, inhibitor, fluorescence |  |  | 212000 nM |
| Cc1c(Cc2ccc(Cl)c(O[C@H](C)C(=O)O)c2)c2ccc(C(=O)NCc3ccc(C(C)(C)C)cc3)cc2n1C | PPARG ligand-binding domain | reporter gene, luciferase reporter | HEK293T, Gal4-PPARγ LBD |  | 20100 nM |
| O=C1C(Cl)=C(NCCN2CCOCC2)C(=O)c2ncccc21 | N-lysine methyltransferase KMT5A (KMT5A, Homo sapiens, UniProt Q9NQR1) | enzyme activity, inhibitor, radiometric |  |  | 370 nM |

A few entries again:
| Compound | target | test | system | conditions | IC50 |
| --- | --- | --- | --- | --- | --- |
| COc1cccc([C@H](C)NC(=O)c2ccc3c(Cc4cccc(OC(C)(C)C(=O)O)c4)c(C)n(C)c3c2)c1 | PPARG | ligand displacement, TR-FRET |  |  | 6 nM |
| O=C1C(Cl)=C(NCCN2CCOCC2)C(=O)c2ncccc21 | N-lysine methyltransferase KMT5A (KMT5A, Homo sapiens, UniProt Q9NQR1) | enzyme activity, inhibitor, radiometric |  |  | 370 nM |
| Cc1nn(-c2cccc(N)c2)c(=O)c2cnc(Nc3ccc(N4CCNCC4)cc3)nc12 | Serine/threonine-protein kinase 25 (STK25, Homo sapiens, UniProt O00506) | enzyme activity, inhibitor |  |  | 2940 nM |
| O=C(CNc1cccc2c1C(=O)N(C1CCC(=O)NC1=O)C2=O)NCCOCCOCCOCC(=O)N1CCC(CNC(=O)c2cccc(-c3noc(C(F)(F)F)n3)c2)(c2nc(-c3ccccc3)cs2)CC1 (stereo not drawn) | HDAC5 | enzyme activity, inhibitor |  |  | 3380 nM |
